Measurements of several laboratories.
Every numbered part comes from another study and shows a few of its results, in no order. Positions count from the first letter of the parent shown.

Series 1
Target: CCNB3, cyclin fold, Cln2 fusion (human)
Method: yeast growth competition, sequencing
Medium: yeast
Notes: weak parent motif
Relative to: not given
Reading: higher = stronger binding
Parent: PKMYT1 docking peptide (human); SFEPRNLLSLFED
| Change | normalised enrichment score |
| --- | --- |
| SFENRNLLSLFED [P4N] | 0.00104 |
| SFEPRNLFSLFED [L8F] | 0.621 |
| SFEPRNLLSRFED [L10R] | 0.46 |
| HFEPRNLLSLFED [S1H] | 0.0364 |
| SFEPRNLLSTFED [L10T] | 0.644 |
| SFEPQNLLSLFED [R5Q] | 0.442 |
| SFEPRLLLSLFED [N6L] | 0.533 |
| SFEPRNLLSLFSD [E12S] | 0.187 |
| SFEPRNELSLFED [L7E] | -0.288 |
| SKEPRNLLSLFED [F2K] | 0.105 |
| SFEPVNLLSLFED [R5V] | 0.274 |
| SFEPRNLDSLFED [L8D] | 0.0789 |
| SFEPRNKLSLFED [L7K] | 0.279 |
| SFEQRNLLSLFED [P4Q] | 0.803 |
| SHEPRNLLSLFED [F2H] | -0.0573 |
| SFEPRNLLSLFEQ [D13Q] | 0.225 |
| SFEPRNLLSLFEL [D13L] | 0.142 |
| SFEPRNLLSQFED [L10Q] | 0.794 |
| SFEPRNLRSLFED [L8R] | 0.363 |
| SFEPRNLLSLFLD [E12L] | 0.122 |

Series 2
Target: UBE2S UBC core domain (UniProt Q16763)
Method: yeast two-hybrid
Medium: yeast
Notes: mostly zero background
Relative to: not given
Reading: higher = stronger interaction
B1: TRAF5 RING domain (UniProt O00463); chain FVERLEERYKCAFCHSVLHNPHQTGCGHRFCQHCILSLRELNTVPICPVDKEVIKSQEVFK
B2: TRIM5 RING domain (UniProt Q9C035); chain ILVNVKEEVTCPICLELLTQPLSLDCGHSFCQACLTANHKKSMLDKGESSCPVCRISYQPENIRP
B3: TRIML1 RING domain (UniProt Q8N9V2); chain LMENLREELTCFICLDYFSSPVTTECGHSFCLVCLLRSWEEHNTPLSCPECWRTLEGPHFQS
B4: TRIM4 RING domain (UniProt Q9C037); chain EAEDIQEELTCPICLDYFQDPVSIECGHNFCRGCLHRNWAPGGGPFPCPECRHPSAPAALRP
B5: TRIM24 RING domain (UniProt O15164); chain EAARLNLLDTCAVCHQNIQSRAPKLLPCLHSFCQRCLPAPQRYLMLPAPMLGSAETPPPVPAPGSPVSGSSPFATQVGVIRCPVCSQECAERHII
B6: RNF111 RING domain (UniProt Q6ZNA4); chain EGTEEDTEEKCTICLSILEEGEDVRRLPCMHLFHQVCVDQWLITNKKCPICRVDIEAQLPSE
B7: RC3H1 RING domain (UniProt Q5TC82); chain QAPQWTDFLSCPICTQTFDETIRKPISLGCGHTVCKMCLNKLHRKACPFDQTTINTDIELL
B8: DTX4 RING domain (UniProt Q9Y2E6); chain QKVRHPPDEDCTICMERLTAPSGYKGPQPTVKPDLVGKLSRCGHVYHIYCLVAMYNNGNKDGSLQCPTCKTIYGVKTGTQ
B9: RNF38 RING domain (UniProt Q9H0F5); chain PNNHQSEQTLCVVCMCDFESRQLLRVLPCNHEFHAKCVDKWLKANRTCPICRADASEVHRDS
B10: NEURL1 RING domain (UniProt O76050); chain VTPGLGQWSDECTICYEHAVDTVIYTCGHMCLCYACGLRLKKALHACCPICRRPIKDIIKT
Residues (chain): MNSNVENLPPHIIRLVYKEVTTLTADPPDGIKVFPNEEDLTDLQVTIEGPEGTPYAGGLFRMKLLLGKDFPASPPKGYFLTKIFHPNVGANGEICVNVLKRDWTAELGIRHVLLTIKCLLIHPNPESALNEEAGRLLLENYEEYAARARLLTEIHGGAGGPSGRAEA
| Molecule | lacZ reporter activity |
| --- | --- |
| B1 (TRAF5 RING domain) | 0 |
| B2 (TRIM5 RING domain) | 0 |
| B3 (TRIML1 RING domain) | 0 |
| B4 (TRIM4 RING domain) | 0 |
| ASLPTSEEDLCPICYAHPISAVFQPCGHKSCKACINQHLMNNKDCFFCKTTIVSVEDWE (RNF123 RING domain (UniProt Q5XPI4)) | 0 |
| B5 (TRIM24 RING domain) | 0 |
| B6 (RNF111 RING domain) | 0 |
| FQGDVDEDLICPICSGVLEEPVQAPHCEHAFCNACITQWFSQQQTCPVDRSVVTVAHLRP (RNF41 RING domain (UniProt Q9H4P4)) | 0 |
| QVDKAVFHMQSVKCLKCQEQKRAVLPCQHAALCELCAEGSECPICQPGRAHTLQS (UNK RING domain (UniProt Q9C0B0)) | 0 |
| B7 (RC3H1 RING domain) | 0 |
| B8 (DTX4 RING domain) | 0 |
| B9 (RNF38 RING domain) | 0 |
| B10 (NEURL1 RING domain) | 0 |

Series 3
Target: Prothrombin, mature alpha-thrombin (F2, Homo sapiens, UniProt P00734)
Method: aptamer microarray, sandwich
Molecule type: DNA with 2'F-ANA
Medium: in vitro
Tested at: 200 nM
Notes: whole 15-mer aptamer, many near background
Together with: Cy3 exosite-II aptamer, 400 nM
Reading: higher = stronger binding
Strand: GGTTGGTGTGGTTGG
| Modification | mean fluorescence intensity |
| --- | --- |
| 2'F-ANA at 2 5 6 12 13 15 | 109 a.u. |
| 2'F-ANA at 1 3 5 8 9 10 13 14 | 52.1 a.u. |
| 2'F-ANA at 1 7 9 10 11 14 15 | 45.6 a.u. |
| 2'F-ANA at 1 2 4 5 6 10 11 | 43.1 a.u. |
| 2'F-ANA at 5 6 7 12 14 | 46.3 a.u. |
| 2'F-ANA at 5 6 10 13 | 45 a.u. |
| 2'F-ANA at 2 4 5 7 8 9 10 13 | 42.9 a.u. |
| 2'F-ANA at 1 2 7 12 | 357 a.u. |
| 2'F-ANA at 3 5 8 9 10 11 13 | 112 a.u. |
| 2'F-ANA at 1 2 3 5 7 9 11 13 | 50.8 a.u. |
| 2'F-ANA at 1 2 3 4 7 9 11 12 14 15 | 67.8 a.u. |
| 2'F-ANA at 2 7 10 13 14 | 88.8 a.u. |
| 2'F-ANA at 1 5 8 9 10 14 15 | 97.1 a.u. |
| 2'F-ANA at 5 7 10 11 13 14 | 56.1 a.u. |
| 2'F-ANA at 3 7 8 11 12 13 14 15 | 783 a.u. |
| 2'F-ANA at 6 8 10 11 12 14 | 93.8 a.u. |
| 2'F-ANA at 3 5 9 12 13 | 181 a.u. |
| 2'F-ANA at 2 3 5 7 8 9 13 | 118 a.u. |
| 2'F-ANA at 2 3 4 7 10 14 15 | 207 a.u. |
| 2'F-ANA at 2 5 7 12 13 14 | 57.1 a.u. |
| 2'F-ANA at 1 2 3 4 6 8 9 10 11 14 | 62.3 a.u. |
| 2'F-ANA at 2 3 6 9 12 15 | 1070 a.u. |
| 2'F-ANA at 1 2 3 5 6 9 10 11 12 14 15 | 50.7 a.u. |
| 2'F-ANA at 1 5 6 9 10 12 | 46.9 a.u. |
| 2'F-ANA at 2 3 4 5 6 7 10 13 14 15 | 61.8 a.u. |

Series 4
Target: NFIL3, bZIP domain (human)
Method: DHFR protein complementation
Medium: yeast
Notes: single substitutions, most at no-binding floor
Relative to: wild-type JUN-FOS pair
Reading: higher = stronger binding
Parent: JUN, bZIP domain (human); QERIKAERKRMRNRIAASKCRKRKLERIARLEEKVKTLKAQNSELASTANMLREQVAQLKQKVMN; partner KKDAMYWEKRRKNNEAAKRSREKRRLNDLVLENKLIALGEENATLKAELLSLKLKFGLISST
| Change | binding fitness [natural log] |
| --- | --- |
| R53N | -1.44 |
| K39L | -1.51 |
| A40W | -1.5 |
| S47A | -1.32 |
| A57H | -1.46 |
| T48C | -1.35 |
| T37W | -1.32 |
| A49S | -1.38 |
| N42V | -1.33 |
| I28F | -1.47 |
| K34G | -1.45 |
| V35E | -1.5 |
| A29Y | -1.39 |
| L52R | -1.53 |
| A46P | -1.47 |
| R30P | -1.36 |
| R53F | -1.48 |
| Q55F | -1.44 |
| E44A | -1.5 |
| V56F | -1.3 |
| A57P | -1.48 |
| N42S | -1.43 |
| L31E | -1.52 |
| V56W | -1.48 |
| Q41A | -1.53 |

Series 5
Target: ABI1, truncated, D143A, DHFR fusion (Arabidopsis thaliana)
Method: DHFR PCA, deep sequencing
Medium: yeast
Notes: methotrexate growth selection, single substitutions
Together with: (+)-ABA 4.8 µM
Relative to: wild-type fitted maximum
Reading: higher = stronger binding
Parent: PYL1, truncated, DHFR fusion (Arabidopsis thaliana); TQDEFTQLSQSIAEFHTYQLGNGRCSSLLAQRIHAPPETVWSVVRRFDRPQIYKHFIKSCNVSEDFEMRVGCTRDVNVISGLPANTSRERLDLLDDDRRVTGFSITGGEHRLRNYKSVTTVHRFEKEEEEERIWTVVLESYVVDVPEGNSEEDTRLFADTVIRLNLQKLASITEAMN; partner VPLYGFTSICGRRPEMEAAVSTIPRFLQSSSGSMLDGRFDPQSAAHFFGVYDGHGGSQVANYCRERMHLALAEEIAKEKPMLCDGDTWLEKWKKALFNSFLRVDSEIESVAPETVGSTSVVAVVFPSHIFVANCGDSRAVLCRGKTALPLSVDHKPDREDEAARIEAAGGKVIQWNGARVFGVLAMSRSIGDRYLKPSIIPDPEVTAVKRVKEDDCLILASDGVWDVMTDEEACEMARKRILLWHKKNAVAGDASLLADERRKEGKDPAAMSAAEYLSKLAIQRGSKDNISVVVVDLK
| Change | relative binding score [%] |
| --- | --- |
| T1V | 81.5 |
| Y18G | 16.3 |
| R99H | 74.3 |
| S9K | 83.9 |
| S87N | 16.9 |
| V118A | 16.1 |
| S27L | 6.12 |
| G107Q | 13.6 |
| S150F | -2.12 |
| E152M | 54.7 |
| E139L | 15.2 |
| N77R | 84.4 |
| A170W | -15.5 |

Repeated from above (series 1):
| Change | normalised enrichment score |
| --- | --- |
| SFEPRNLLSQFED [L10Q] | 0.794 |
| SFEPRNLRSLFED [L8R] | 0.363 |
| SFEPRNLLSLFEQ [D13Q] | 0.225 |
| SFENRNLLSLFED [P4N] | 0.00104 |
| SHEPRNLLSLFED [F2H] | -0.0573 |
| SFEPVNLLSLFED [R5V] | 0.274 |
| SFEPRNLLSLFLD [E12L] | 0.122 |
